Experimental data from different studies.
Compare with care: the assays were run in different laboratories. ± marks the error that the study gave.

SMILES	organism	assay	system	conditions	IC50
CC(=O)CCC1C(=O)NC(C(C)C)C(=O)NC(Cc2cc(O)cc(F)c2)C(=O)N2CCCC(N2)C(=O)OC(C(C)=CC=CC(=O)N2CCCCO2)CC=CC=CC(O)C(C)C1O (stereo not drawn)	Human immunodeficiency virus 1	viral replication, flow cytometry	HeLa	48 h	130 nM
CC(C)=CCC/C(C)=C/CC/C(C)=C/CNCCOC1C2CC3CC(C2)CC1C3 (stereo not drawn)	Saccharomyces cerevisiae	microbial growth			0.7 µg/mL
O=C(C1CCN(c2nnnn2-c2ccccc2)CC1)N1CCCc2ccccc21	Plasmodium falciparum		erythrocytes, Dd2, eEF2 variant		1640 nM
c1cncc(CCCCCCCCCCCCN2O[C@@H](CCCCCCCCc3cccnc3)[C@H]3CCC[C@H]32)c1	Hepatitis C virus	viral replication, inhibitor, luciferase		replicon	5.8 µg/mL
N=C(NO)NN=Cc1cccnc1	Human alphaherpesvirus 1	plaque formation	Vero	96 h	> 100000 nM
Nc1nc(-c2ccccc2)nc2[nH]nc(Nc3ccc(F)cc3)c12	coxsackievirus B3	plaque formation, plaque reduction	HeLa, Nancy, resistant mutant S2209C		32500 ± 4590 nM
CC(C)=CCC/C(C)=C/CNCCOC1C2CC3CC(C2)CC1C3 (stereo not drawn)	Saccharomyces cerevisiae	microbial growth			1.8 µg/mL
O=[N+]([O-])c1ccc(/C=N/N=C/c2ccc(Br)cc2)o1	Trypanosoma evansi	parasite growth, CellTiter-Glo	Tansui bloodstream form	72 h	1150 ± 160 nM
O=C(/C=C/CF)O[C@@H]1COC(=O)C1	Vibrio harveyi	quorum sensing bioluminescence, inhibitor	BB120		168000 nM
CC(C)C[C@@H](N)C(=O)NCC(=O)N[C@H](C)C(=O)N[C@H](CO)C(=O)N[C@H](Cc1c[nH]c2ccccc12)C(=O)N[C@H](Cc1c[nH]cn1)C(=O)N[C@H](CCCNC(=N)N)C(=O)N1CCC[C@@H]1C(=O)N[C@H](CC(=O)O)C(=O)N[C@H](CCCCN)C(=O)NCCCC[C@@H](NC(=O)[C@H]1CCCN1C(=O)[C@@H](CC(C)C)NC(=O)[C@H]1CCCN1C(=O)[C@@H](CCCNC(=N)N)NC(=O)[C@@H](CCCCN)NC(=O)[C@@H](CCC(N)=O)NC(=O)[C@@H](Cc1ccc(O)cc1)NC(=O)CNC(=O)[C@@H](CC(C)C)NC(=O)[C@@H](CS)NC(=O)[C@@H](CS)NC(=O)[C@@H](CCCCN)NC(=O)[C@@H](CC(=O)O)NC(=O)[C@H]1CCCN1C(=O)[C@@H](CCCNC(=N)N)NC(=O)[C@@H](Cc1c[nH]cn1)NC(=O)[C@@H](Cc1c[nH]c2ccccc12)NC(=O)[C@@H](CO)NC(=O)[C@@H](C)NC(=O)CNC(=O)[C@H](N)CC(C)C)C(N)=O	Human immunodeficiency virus 1	viral replication, ELISA	MT4, NL43		~1000 nM
CC(=O)O[C@@H]1C[C@@H](C)O[C@H]2O[C@@H]3C[C@@H]4CC[C@@H]5[C@H](CC[C@]6(C)[C@@H](C7=CC(=O)OC7)CC[C@]56O)[C@@]4(C)C[C@H]3O[C@]21O	Schistosoma mansoni	microscopic viability score	adult worms	72 h	138 nM
O=C(/C=C/CI)O[C@@H]1COC(=O)C1	Vibrio harveyi	quorum sensing bioluminescence, inhibitor	BB120		130 nM

Repeated from above:
SMILES	organism	assay	system	conditions	IC50
CC(=O)CCC1C(=O)NC(C(C)C)C(=O)NC(Cc2cc(O)cc(F)c2)C(=O)N2CCCC(N2)C(=O)OC(C(C)=CC=CC(=O)N2CCCCO2)CC=CC=CC(O)C(C)C1O (stereo not drawn)	Human immunodeficiency virus 1	viral replication, flow cytometry	HeLa	48 h	130 nM
